Experimental data pooled from the literature.
Each numbered part is a random draw from the data of one study; scales do not carry over between parts.

Set 1 — cell line: HEK-293T; read-out: pseudovirus infection; technique: FDA-approved drug library screen; organism: VSV pseudotyped with SARS-CoV-2 spike; tested at: 10 µM; time: 16 h; baseline: vehicle-treated
Compound	GFP-positive cells [%]
C[C@H](CCC(=O)O)[C@H]1CC[C@H]2[C@@H]3[C@H](O)C[C@@H]4C[C@H](O)CC[C@]4(C)[C@H]3C[C@H](O)[C@]12C	80.6
N[C@H]1CON=C1O	82.2
C[C@H]1C[C@H]2[C@@H]3CCC4=CC(=O)C=C[C@]4(C)[C@@]3(F)[C@@H](O)C[C@]2(C)[C@@]1(O)C(=O)CO	90.7

Set 2 — read-out: enzyme activity; action: inhibitor; tested at: 20 µM; notes: hit confirmation
Target: Replicase polyprotein 1ab, main protease (rep, Severe acute respiratory syndrome coronavirus 2, UniProt P0DTD1)
Compound	inhibition [%]
COc1cccc2c1C(=O)c1c(O)c3c(c(O)c1C2=O)C[C@@](O)(/C(CO)=N/NC(=O)CCCCCN1C(=O)C=CC1=O)C[C@@H]3O[C@H]1C[C@H](N)[C@H](O)[C@H](C)O1	101
Cn1sc(=O)n(Cc2ccccc2)c1=O	110
COc1ccc2c(c1)nc([S+]([O-])Cc1ncc(C)c(OC)c1C)[n]2[Mg][n]1c([S+]([O-])Cc2ncc(C)c(OC)c2C)nc2cc(OC)ccc21 (stereo not drawn)	99.7

Set 3 — read-out: enzyme activity; action: inhibitor; tested at: 20 µM
Target: Replicase polyprotein 1ab, polymerase (rep, Severe acute respiratory syndrome coronavirus 2, UniProt P0DTD1)
SMILES	inhibition
Cc1cc2c(OCC(CNC(C)(C)C)OC(=O)c3ccccc3)cccc2[nH]1 (stereo not drawn)	-0.11%
NS(=O)(=O)C#Cc1ccccc1	-1.59%
CCOc1cncc(/C=C/CCNC)c1	-6.85%
CC(C)C(=O)OCC(=O)[C@@]12O[C@H](C3CCCCC3)O[C@@H]1C[C@H]1[C@@H]3CCC4=CC(=O)C=C[C@]4(C)[C@H]3[C@@H](O)C[C@@]12C	3.03%
CN(Cc1cc(Br)cc(Br)c1N)C1CCCCC1	-2.77%
CC(C)NCC(O)c1ccc2ccccc2c1 (stereo not drawn)	1.07%
CO/N=C(\C(=O)N[C@@H]1C(=O)N2C(C(=O)O)=CCS[C@H]12)c1csc(N)n1	-3.46%
C=CCN1C[C@H](C(=O)N(CCCN(C)C)C(=O)NCC)C[C@@H]2c3cccc4[nH]cc(c34)C[C@H]21	4.73%
CN(C)C(=O)C(=O)c1cn(C)c2cc(Cl)c(C(=O)N3CCC(Cc4ccc(F)cc4)CC3)cc12	-12.5%
COc1cc2c(Oc3ccc4[nH]c(C)cc4c3F)ccnc2cc1OCC1(N)CC1	-6.92%
NC(=O)c1ccccc1O	-2.76%
CCc1c(C(=O)Nc2cc(S(=O)(=O)N(CC)CC)ccc2O)[nH]c(C)c1C(C)=O	2.12%
CN(C)CCN(C)CCc1ccc(Cl)c(Cl)c1	8.68%
C=C(CC)C(=O)c1ccc(OCC(=O)O)c(Cl)c1Cl	8.63%
O=C(CCCCCN1C(=O)c2cccc3cccc(c23)C1=O)NO	8.43%
CCC1(c2c[nH]cn2)Cc2ccccc2C1	-10.5%
O=C1NS(=O)(=O)c2ccccc21	1%
CCOc1cccc(NC(=O)c2ccc(N3CCCC3)c(C(F)(F)F)c2)c1	-1.37%
NC1(c2ccc(-c3nc4ccn5c(=O)[nH]nc5c4cc3-c3ccccc3)cc2)CCC1	14.4%
CNC(=O)c1ccccc1Nc1nc(Nc2ccc3c(c2OC)CCC[C@H](N2CCN(CCO)CC2)C3)ncc1Cl	5.62%
Cn1c(COc2ccc(CC3SC(=O)NC3=O)cc2)nc2ccccc2c1=O (stereo not drawn)	-8.04%
COC(=O)c1ccccc1NC(=O)c1ccc(F)cc1	-4.62%
CC(=O)NCCNc1cc(Cl)nn2c(-c3cccc(S(=O)(=O)N(C)C)c3)c(C)nc12	0.2%
C[N+](C)(C)CC(=O)O	9.33%
CCOC(=O)[C@H](Cc1ccccc1)NC(=O)c1cc(Cl)c(OCCN2CCN(C)CC2)c(Cl)c1O	-1.56%

Set 4 — technique: universal PBM; form: double-stranded DNA, one strand shown; medium: in vitro; tested at: not given; reading: higher = stronger binding
Target: Sal-like protein 4, full length isoform B (SALL4, Homo sapiens, UniProt Q9UJQ4-2, residues 1-616)
Notes: 8-mer, flanks averaged, mean of replicates
Target sequence (chain): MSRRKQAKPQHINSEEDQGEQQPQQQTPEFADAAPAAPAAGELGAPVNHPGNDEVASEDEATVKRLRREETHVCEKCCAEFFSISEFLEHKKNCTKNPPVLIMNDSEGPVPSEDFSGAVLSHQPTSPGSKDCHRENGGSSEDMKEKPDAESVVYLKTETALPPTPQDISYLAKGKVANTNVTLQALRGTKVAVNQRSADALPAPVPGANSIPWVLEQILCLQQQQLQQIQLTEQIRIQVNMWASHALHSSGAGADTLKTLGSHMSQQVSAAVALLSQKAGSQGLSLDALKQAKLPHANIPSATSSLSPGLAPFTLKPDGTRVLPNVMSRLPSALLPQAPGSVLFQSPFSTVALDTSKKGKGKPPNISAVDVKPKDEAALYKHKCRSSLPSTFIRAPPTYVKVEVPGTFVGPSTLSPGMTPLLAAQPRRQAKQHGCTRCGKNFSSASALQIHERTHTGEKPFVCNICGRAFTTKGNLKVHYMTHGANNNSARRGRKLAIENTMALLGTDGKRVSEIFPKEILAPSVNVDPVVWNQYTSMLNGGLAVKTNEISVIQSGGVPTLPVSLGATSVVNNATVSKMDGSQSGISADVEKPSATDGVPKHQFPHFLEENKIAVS
Strand	E-score
ACTACCTG	-0.123
ATGGTACC	-0.0871
TAGCGGCA	-0.199
AATTGCGC	0.0888
AGTTGTAT	0.196
AGAAGCCC	-0.111
AAACCCAA	0.166
AATACAGG	0.191

Set 5 — technique: protein-binding microarray; form: double-stranded DNA, one strand shown; medium: in vitro; tested at: not given; reading: higher = stronger binding
Target: Protein C-ets-1 (ETS1, Homo sapiens, UniProt P14921, residues 1-441, Y397A, full length assumed)
UniProt P14921, sequence (whole entry, unmodified, looked up): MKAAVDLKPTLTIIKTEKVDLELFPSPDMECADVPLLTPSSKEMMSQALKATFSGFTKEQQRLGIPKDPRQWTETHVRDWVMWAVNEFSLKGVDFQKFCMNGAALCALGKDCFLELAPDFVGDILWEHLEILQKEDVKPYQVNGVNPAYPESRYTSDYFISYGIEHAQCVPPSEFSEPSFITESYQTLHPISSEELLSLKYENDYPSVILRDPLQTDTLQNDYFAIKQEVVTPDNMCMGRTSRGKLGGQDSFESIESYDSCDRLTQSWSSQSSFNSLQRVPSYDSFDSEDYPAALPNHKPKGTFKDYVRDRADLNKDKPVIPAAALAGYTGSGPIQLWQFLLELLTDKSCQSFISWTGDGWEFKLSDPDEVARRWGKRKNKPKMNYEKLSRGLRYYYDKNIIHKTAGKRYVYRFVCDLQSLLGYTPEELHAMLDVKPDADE
Notes: k-mer, scored over probes, only values ≥0.25
Strand	E-score
ATTCGTCA	0.268
ATTTTTGC	0.302
ATACACAA	0.26
AGGAAGTG	0.39

Set 6 — technique: protein binding microarray; form: double-stranded DNA, one strand shown; medium: in vitro; tested at: not given; baseline: not given; reading: higher = stronger binding
Target: Histone acetyltransferase KAT6A, winged helix 2, GST fusion (KAT6A, Homo sapiens, UniProt Q92794, residues 85-181)
Notes: 8-mer, flanks averaged, mean of 2 arrays, mostly near background
Residues (chain): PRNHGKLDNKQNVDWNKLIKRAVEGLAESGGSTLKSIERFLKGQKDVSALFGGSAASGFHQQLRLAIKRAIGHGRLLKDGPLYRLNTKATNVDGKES
Strand	E-score
AGGCGTGA	0.0037
CAAGCAAA	0.0747
GTGCGGTA	0.279
GCGGGGCC	0.254
TACCCTAA	-0.118
CCCGTAAA	0.0373
AAACCGGG	0.0213
CATAAATC	-0.00993
